Experimental data of several laboratories.
Each line is one published result; not all experiments were run side by side.
Organism: Staphylococcus aureus

With CC[C@H](C)[C@H](NC(=O)[C@H](CCCN)NC(=O)[C@H](CC(N)=O)NC(=O)[C@H](Cc1c[nH]c2ccccc12)NC(=O)[C@H](Cc1ccccc1)NC(=O)[C@H](CCCN)NC(=O)[C@H](CCCNC(=N)N)NC(=O)[C@H](CC(C)C)NC(=O)[C@H](Cc1c[nH]c2ccccc12)NC(=O)[C@H](CCCN)NC(=O)[C@H](CCCNC(=N)N)NC(=O)[C@H](CC(C)C)NC(=O)CNC(C)=O)C(=O)N[C@@H](CCCN)C(=O)N[C@@H](CCCNC(=N)N)C(N)=O the MIC was 3.12 µM (broth microdilution; multidrug-resistant).
CC(=O)N[C@@H](Cc1c[nH]c2ccccc12)C(=O)NCCCCCCCCCCCC(=O)NCCCC[C@@H]1NC(=O)[C@H](CCCNC(=N)N)NC(=O)[C@H](CCCNC(=N)N)NC(=O)[C@H](CCCNC(=N)N)NC(=O)[C@H](CCCNC(=N)N)NC(=O)[C@H](CCCNC(=N)N)NC1=O has an MIC of 83.4 µg/mL (broth microdilution; MRSA ATCC 43300; 37 °C).
The MIC of CC(C)C[C@@H]1NC(=O)[C@H](C)NC(=O)[C@H](NC(=O)[C@H](CO)NC(=O)[C@@H](CCCCN)NC(=O)[C@@H](CC(C)C)NC(=O)[C@@H](N)Cc2ccccc2)[C@H](C(N)=O)OC(=O)[C@H](C)NC1=O is reported as > 32 µg/mL (MSSA ATCC 29213; TFA salt).
CN[C@@H]1[C@H](O)[C@H](NC)[C@H]2O[C@]3(O)[C@H](O[C@@H]2[C@H]1O)O[C@H](C)C[C@@]3(O)CNCc1ccc(Cl)cc1 has an MIC of 12.5 to 25 µg/mL (MRSA NRS70).
CCO[C@H]1[C@H](O)[C@@H](N)[C@@H](O[C@H]2[C@H](O[C@@H]3O[C@H](CO)[C@@H](O[C@H]4O[C@@H](CN)[C@@H](O)[C@H](O)[C@H]4N)[C@H]3O)[C@@H](O)[C@H](N)C[C@@H]2N)O[C@@H]1CO gave an MIC of 8 to 16 µg/mL (broth microdilution; MRSA isolate AG 045).
For CNC(CC(C)C)C(=O)NC1C(=O)NC(CC(N)=O)C(=O)NC2C(=O)NC3C(=O)NC(C(=O)NC(C(=O)O)c4cc(O)cc(O)c4-c4cc3ccc4O)C(O)c3ccc(c(Cl)c3)Oc3cc2cc(c3OC2OC(CO)C(O)C(O)C2OC2CC(C)(NCc3ccc(-c4ccc(Cl)cc4)cc3)C(O)C(C)O2)Oc2ccc(cc2Cl)C1O (centres unmarked), the MIC was 0.08 µg/mL (MRSA ATCC 43300).
CCCN1CCNC1=[S+][Ag-3]([O][N+](=O)[O-])([P+](c1ccccc1)(c1ccccc1)c1ccccc1)[P+](c1ccccc1)(c1ccccc1)c1ccccc1 has an MIC of 50 µg/mL (agar dilution; methicillin-resistant; 24 h, 37 °C).
For CCC[C@@H]1NC(=O)[C@@H]([C@@H](C)O)NC(=O)CNC(=O)[C@H](CC(=O)O)NC(=O)CNC(=O)[C@H](CC(=O)O)NC(=O)CNC(=O)[C@H]2CCCCN2C(=O)[C@@H](NC(=O)[C@H](CC(=O)O)NC(=O)/C=C/CCCCCCCCCC(C)C)CNC(=O)[C@@H]2CCCN2C1=O, the MIC was 16 µg/mL (MRSA USA300; together with: Ca2+ 1 mM).
CC(C)C[C@@H]1NC(=O)[C@H](C)NC(=O)[C@H](C)NC(=O)[C@H](NC(=O)[C@H](CO)NC(=O)[C@@H](CCCCN)NC(=O)[C@@H](CC(C)C)NC(=O)[C@@H](N)Cc2ccccc2)[C@H](C(N)=O)OC1=O has an MIC of 4 µg/mL (MRSA ATCC 700698; TFA salt).
For C=CCCNS(=O)(=O)c1ccc(-n2nnc(/C(C)=N/NC(=N)N)c2C)cc1, the MIC was > 64 µg/mL (microbial growth, broth dilution; MRSA USA300; drug-resistant strain).
With CC(=O)N[C@@H](CCCNC(=N)N)C(=O)N[C@@H](Cc1c[nH]c2ccccc12)C(=O)N[C@@H](CCCNC(=N)N)C(=O)N[C@@H](Cc1c[nH]c2ccccc12)C(=O)N[C@@H](Cc1c[nH]c2ccccc12)C(=O)N[C@@H](CCCCN)C(=O)N1CCC[C@H]1C(=O)N[C@H](C(N)=O)C(C)C the MIC was 11.3 to 22.7 µM (MSSA ATCC 29213, MEM medium; overnight, 37 °C).
CCCCCCCCCCN1C(=O)/C(=N\NC(N)=S)c2cc(C)ccc21 has an MIC of > 192 µg/mL (broth microdilution; BAA41 MRSA; 18 h, 37 °C).
With CN[C@@H]1[C@H](O)[C@H](NC)[C@H]2O[C@]3(O)[C@H](O[C@@H]2[C@H]1O)O[C@H](C)C[C@@]3(O)CNCCc1ccc(F)cc1 the MIC was 25 µg/mL (microbial growth; MRSA; drug-resistant strain).
The MIC of c1ccc(CCNC2CCCc3c2[nH]c2ccc(C4CCCCC4)cc32)cc1 (centres unmarked) is reported as 2 µg/mL (broth microdilution; SG511 daptomycin-resistant, cation-adjusted Mueller-Hinton broth).
For C/C(=N/NC(=N)N)c1nnn(-c2ccc(C#CC(C)(C)C)cc2)c1C, the MIC was ≤ 4 µg/mL (broth microdilution; MRSA USA300 NRS384).
CC[C@H](C)[C@H](NC(=O)[C@H](C)NC(=O)[C@@H]1CCCN1C(=O)[C@H](CC(C)C)NC(=O)[C@H](Cc1ccccc1)NC(=O)[C@H](CCCCN)NC(=O)[C@H](CCSC)NC(=O)[C@H](C)NC(=O)[C@H](CCSC)NC(=O)[C@H](CCCCN)NC(=O)[C@H](C)NC(=O)[C@@H](NC(=O)[C@@H](NC(=O)CNC(=O)[C@H](Cc1ccccc1)NC(=O)[C@@H](N)Cc1ccccc1)C(C)C)[C@@H](C)CC)C(=O)N[C@@H](Cc1ccccc1)C(=O)N[C@@H](CCCCN)C(=O)N[C@@H](CCC(N)=O)C(=O)N[C@H](C(=O)N[C@@H](CCC(N)=O)C(=O)N[C@@H](CCCCN)C(=O)N[C@@H](CCCCN)C(=O)N[C@@H](CCCNC(=N)N)C(=O)N[C@@H](CCCCN)C(N)=O)[C@@H](C)CC gave an MIC of 1.56 to 3.12 µM (broth microdilution; MRSA ATCC 33592).
With COc1cc(/C=N/N2C(=O)c3ccccc3NC2c2cc(OC)c(O)c(OC)c2)cc(OC)c1O (centres unmarked) the MIC was > 256 µg/mL (microbial growth, broth dilution; MRSA; 24 h, drug-resistant strain, clinical isolate).
For CC[S+]([O-])C1C(CO)OC(OC2C(N)CC(N)C(O)C2OC2OC(CO)C(OC3OC(CN)C(O)C(O)C3N)C2O)C(N)C1O (mixture of isomers), the MIC was 64 to 128 µg/mL (methicillin-resistant).
CC(C)=CCc1cc([C@@H]2CC(=O)c3c(O)cc(O)c(CC=C(C)C)c3O2)cc(CC=C(C)C)c1O — result for MIC: “inactive”.
CCCCCCCCCCCCCC(=O)N[C@@H]1CCNC(=O)[C@H](CC(=O)O)NC(=O)[C@H](C(C)C)NC(=O)[C@@H](Cc2ccc(O)cc2)NC(=O)[C@H](CCN)NC(=O)[C@H](CC(C)C)NC(=O)[C@@H](Cc2ccccc2)NC(=O)[C@H](CCN)NC(=O)[C@H](CC(C)C)NC(=O)[C@H](CCN)NC(=O)[C@H]([C@@H](C)O)NC1=O has an MIC of 4 µg/mL (broth microdilution; BNCC 186335).
With O=C(O)c1ccc(-n2cc(/C=N/Nc3cccc(Cl)c3F)c(-c3ccc4ccccc4c3)n2)cc1 the MIC was 0.78 µg/mL (microbial growth; ATCC33592; drug-resistant strain).
The MIC of CC[C@@H]1NC(=O)[C@@H]([C@@H](C)O)NC(=O)CNC(=O)[C@H](CC(=O)O)NC(=O)CNC(=O)[C@H](CC(=O)O)NC(=O)CNC(=O)[C@H]2CCCCN2C(=O)[C@@H](NC(=O)[C@H](CC(=O)O)NC(=O)/C=C/CCCCCCCCCC(C)C)CNC(=O)[C@@H]2CCCN2C1=O is reported as 32 µg/mL (MRSA USA300; together with: Ca2+ 1 mM).
For O=[N+]([O-])c1ccc2c(c1)C=[N+]1N3C(=[O+][Cu-2]1([Cl])[O]2)c1ccccc1NC3c1cc([N+](=O)[O-])ccc1O (centres unmarked), the MIC was 8 µg/mL (broth microdilution; MRSA clinical isolate SA 630; 24 h, 37 °C).
The MIC of CC[C@H](C)[C@H](NC(=O)[C@H](NC(=O)[C@@H](CCC(N)=O)NC(=O)[C@@H](N)COC(=O)[C@@H](NC(=O)[C@@H](Cc1ccccc1)NC)[C@@H](C)CC)[C@@H](C)CC)C(=O)N[C@@H](CO)C(=O)N[C@H]1C(=O)N[C@@H](C)C(=O)N[C@@H](C2CCCCC2)C(=O)N[C@@H]([C@@H](C)CC)C(=O)O[C@H]1C is reported as 0.5 µg/mL (broth microdilution; ATCC 700698, MRSA, brain heart infusion broth; 16 h, 37 °C).
The MIC of CC[C@H](C)[C@H](NC(=O)[C@H](CC(=O)O)NC(=O)[C@H](Cc1ccccc1)NC(=O)[C@H](CC(C)C)NC(=O)CN)C(=O)N[C@@H](CC(C)C)C(=O)N[C@@H](CCCCN)C(=O)N[C@@H](CCCCN)C(=O)N[C@@H](CC(C)C)C(=O)N[C@@H](CC(C)C)C(=O)N[C@@H](CCCCN)C(=O)N[C@@H](CC(C)C)C(=O)N[C@@H](CC(C)C)C(=O)N[C@@H](CCCCN)C(N)=O is reported as 100 µM (SH1000 GFP-expressing, nutrient broth; 20 h, 37 °C).
CN1C(=O)[C@@H]2NC(=O)[C@@H]3NC(=O)[C@@H](c4ccc(O)cc4)NC(=O)[C@H](NC(=O)C(NC(=O)CCCCCN)c4ccc(O)cc4)Cc4c[nH]c5cc(ccc45)-c4cc3cc(c4O)Oc3ccc(cc3)C[C@H]1C(=O)N[C@@H](C(=O)O)c1ccc(O)c(c1)Oc1ccc2cc1 (some centres unmarked) has an MIC of 8 to 16 µg/mL (ATCC 33591 MRSA, Mueller-Hinton broth).
NCCCC[C@H](NC(=O)[C@H](CCCCN)NC(=O)[C@H](Cc1ccccc1)NC(=O)[C@@H]1CCCN1C(=O)[C@H](Cc1c[nH]c2ccccc12)NC(=O)[C@H](Cc1c[nH]c2ccccc12)NC(=O)[C@H](Cc1c[nH]c2ccccc12)NC(=O)[C@@H]1CCCN1C(=O)[C@H](Cc1ccccc1)NC(=O)[C@H](CCCCN)NC(=O)[C@@H](N)CCCCN)C(N)=O gave an MIC of 30 µM (MRSA AMC 201, RPMI medium; 24 h, 37 °C).
For CC[C@H](C)[C@H](N)C1=N[C@H](C(=O)N[C@@H](CC(C)C)C(=O)N[C@H](CCC(=O)O)C(=O)N[C@H](C(=O)N[C@H]2CCCCNC(=O)[C@H](CC(N)=O)NC(=O)[C@@H](CC(=O)O)NC(=O)[C@H](Cc3c[nH]cn3)NC(=O)[C@@H](Cc3ccccc3)NC(=O)[C@H](Cc3ccccc3)NC(=O)[C@@H](CCCN)NC2=O)[C@@H](C)CC)CS1, the MIC was 4 µg/mL (broth microdilution; ATCC 29213, LB medium; 18 h, 37 °C, together with: ZnSO4 0.3 mM).
For COc1ccc2ccc3c(c2c1)C=[N+]1C2CCCCC2[N+]2=Cc4cc(C(C)(C)C)ccc4[O][Au-]21[O]3.F[P-](F)(F)(F)(F)F (centres unmarked), the MIC was 10 µM (bacterial growth, broth microdilution; vancomycin-intermediate; 24 h).
